Results pooled from the literature.
Values joined by “and” are separate records of one study, mostly repeats; a detail may differ. ± marks the error that the study gave.
Organism: HIV-1

`O=C(O)c1ccccc1-n1c(-c2ccccc2)nc2c(Br)cc(Br)cc2c1=O` gave an EC50 of > 83.2 µg/mL (cytopathic effect; MT-4, IIIB; 5 days).
For `Cc1cc(C)cc(S(=O)(=O)c2c(C(=O)NCCNS(=O)(=O)c3ccccc3)[nH]c3ccc(Cl)cc23)c1`, the EC50 was 14 ± 1.1 nM (viral replication; MT-4, IIIB).
The EC50 of `O=C(O)c1cc(Br)ccc1-n1c(-c2ccccc2)nc2c(Br)cc(Br)cc2c1=O` is reported as > 64.2 µg/mL (cytopathic effect; MT-4, IIIB; 5 days).
`Cc1cc(C#N)cc(C)c1Oc1cc(Nc2ccc(C#N)cc2)c(N)cc1[N+](=O)[O-]` has an EC50 of 32 ± 5 nM (viral replication, p24 ELISA; MT2, IIIB wild type).
For `O=c1[nH]c(=O)n([C@H]2C[C@H](O)[C@@H](CO)O2)cc1I`, the EC50 was 86500 nM and 65700 nM (viral replication, supernatant RT activity; human PBM cells, LAI; 6 days).
`Cc1nc(CN)cc2c1[nH]c1ccccc12` gave an EC50 of > 100000 nM (cytopathic effect; MT4, NL4.3; 5 days).
The EC50 of `CN(C(=O)[C@H](Cc1ccccc1)NC(=O)c1c[nH]c(=O)[nH]c1=O)c1ccccc1` is reported as > 20000 nM (viral replication; TZM-GFP, NL4-3).
The EC50 of `Cc1cn([C@H]2C[C@H](N=[N+]=[N-])[C@@H](COC(=O)Cn3c(=O)ccn(CCCCCCCCOc4ccc(Br)cc4)c3=O)O2)c(=O)[nH]c1=O` is reported as 230 ± 110 nM (viral replication, measured: p24gag; MT4, Lai.04; 3 days).
The EC50 of `O=C1Nc2ccc(Cl)cc2[C@@](C#CC2CC2)(C(F)(F)F)O1` is reported as 3.8 ± 0.63 nM (viral replication; MT-4, IIIB).
For `c1nc2c(NCc3ccc(CNCCCNC4CCCCC4)cc3)nc(N3CCNCC3)nc2[nH]1`, the EC50 was 2 ± 0.1 nM (viral replication, luciferase reporter; TZM-bl, IIIB).
With `Cc1cc(C#N)cc(C)c1Oc1nc(Nc2ccc(C#N)cc2)nc(N)c1Br` the EC50 was 5.1 ± 9.2 nM (viral replication; MT-4, IIIB).
`Cc1cc(C#N)cc(C)c1Oc1nc(Nc2ccc(C#N)cc2)nc(N)c1Br` gave an EC50 of 1.42 ± 0.46 nM (viral replication, luciferase reporter; TZM-bl, NL4-3 wild type).
`Cc1cc(C)cc(S(=O)(=O)c2c(C(=O)NCCNS(=O)(=O)c3ccc(Br)cc3)[nH]c3ccc(Cl)cc23)c1` gave an EC50 of 160 ± 27 nM (viral replication; MT-4, IIIB).
For `COC(=O)[C@H](C)NP(=O)(OCCOCn1cnc2c(=O)[nH]c(N)nc21)Oc1cccc2ccccc12` (stereo partly shown), the EC50 was 140 ± 30 nM (viral replication, measured: p24 antigen; LAI.04, human tonsil tissue ex vivo; 12 d).
For `Nc1ccn([C@@H]2O[C@H](CO)[C@@H](O)[C@@H]2O)c(=O)n1`, the EC50 was 4900 nM (viral replication, measured: reverse transcriptase activity; human PBM cells, LAI; 144 h).
The EC50 of `C=C(C)[C@@H]1CC[C@]2(NCCN3CCS(=O)(=O)CC3)CC[C@]3(C)[C@H](CC[C@@H]4[C@@]5(C)CC=C(C6=CC[C@@](CF)(C(=O)O)CC6)C(C)(C)[C@@H]5CC[C@]43C)[C@@H]12` is reported as ~0.17 µg/mL (viral load; human, HIV-1 patients, plasma).
With `Cc1cc(C)cc(S(=O)(=O)c2c(C(=O)NCCCNS(=O)(=O)c3ccccc3F)[nH]c3ccc(Cl)cc23)c1` the EC50 was 15 ± 1.7 nM (viral replication; MT-4, IIIB).
`Cc1cc(C)cc(C(=O)c2cc(Cl)ccc2OCCn2c3c(c(=O)[nH]c2=O)CCC3)c1` gave an EC50 of 3 nM (viral replication; MAGI-CCR5, Ba-L, CCR5-tropic; co-addition with virus).
`c1cc(CNCCCNC2CCCCC2)nc(CNc2nc(N3CCNCC3)nc3[nH]cnc23)c1` has an EC50 of 2.5 ± 0.1 nM (viral replication, luciferase reporter; TZM-bl, IIIB).

A few entries again:
For `COC(=O)[C@H](C)NP(=O)(OCCOCn1cnc2c(=O)[nH]c(N)nc21)Oc1cccc2ccccc12` (stereo partly shown), the EC50 was 140 ± 30 nM (viral replication, measured: p24 antigen; LAI.04, human tonsil tissue ex vivo; 12 d).
The EC50 of `CN(C(=O)[C@H](Cc1ccccc1)NC(=O)c1c[nH]c(=O)[nH]c1=O)c1ccccc1` is reported as > 20000 nM (viral replication; TZM-GFP, NL4-3).
